Results pooled from the literature.
A part holds a random share of what one study measured.

Block 1
Target: Interferon regulatory factor 7, full length, phosphomimetic (IRF7, Homo sapiens, UniProt Q92985, residues 1-503, S101K/S471D/S472D/S475D/S476D/S477D/S483D/S484D/S487D)
Sequence of UniProt Q92985 (whole entry, unmodified, looked up): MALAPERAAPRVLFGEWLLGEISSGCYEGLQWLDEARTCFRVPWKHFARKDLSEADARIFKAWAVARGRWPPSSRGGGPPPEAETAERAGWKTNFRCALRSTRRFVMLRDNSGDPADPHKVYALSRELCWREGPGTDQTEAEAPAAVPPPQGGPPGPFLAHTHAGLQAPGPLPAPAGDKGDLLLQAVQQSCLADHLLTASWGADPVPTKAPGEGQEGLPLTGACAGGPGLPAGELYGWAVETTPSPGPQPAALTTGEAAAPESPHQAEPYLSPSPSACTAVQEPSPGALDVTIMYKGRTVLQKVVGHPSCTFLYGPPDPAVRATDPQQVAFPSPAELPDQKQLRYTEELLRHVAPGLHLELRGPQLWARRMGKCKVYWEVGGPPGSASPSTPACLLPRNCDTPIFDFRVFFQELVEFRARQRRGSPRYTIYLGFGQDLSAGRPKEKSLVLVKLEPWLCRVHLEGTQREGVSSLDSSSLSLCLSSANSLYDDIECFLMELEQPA
Method: protein-binding microarray
Form: double-stranded DNA, one strand shown
Sample: in vitro
Tested at: 250 nM
Setting: 60-bp whole probe
With: salmon DNA 0.4 mg/ml
Baseline: random background probes
Reading: higher = stronger binding
Strand | log fluorescence [z-score]
GCCTAGCACTTAGCTCTCCTTCTCCTTTAGTGCTAGGTCTTGATTCGCTTGACGCTGCTG | -0.28
GCCTAGCACTATCTTATGATATATATAATAGTGCTAGTCTTGATTCGCTTGACGCTGCTG | 0.606
GCCTAGCACCAATACCTTATGAATGTGTTGTGCTAGGTCTTGATTCGCTTGACGCTGCTG | 0.184

Block 2
Target: Prothrombin, mature alpha-thrombin (F2, Homo sapiens, UniProt P00734)
Method: aptamer microarray, sandwich
Form: DNA with 2'F-ANA
Sample: in vitro
Tested at: 200 nM
Setting: whole 15-mer aptamer, many near background
With: Cy3 exosite-II aptamer, 400 nM
Reading: higher = stronger binding
Strand | mean fluorescence intensity
GGTTGGTGTGGTTGG (2'F-ANA at 1 2 4 5 7 9 13 14 15) | 46.5 a.u.
GGTTGGTGTGGTTGG (2'F-ANA at 2 4 5 6 8 9 12 13 14 15) | 49.3 a.u.
GGTTGGTGTGGTTGG (2'F-ANA at 9 10 11 13) | 139 a.u.

Block 3
Target: Ras GTPase-activating protein-binding protein 1, C-terminal RGG region (G3BP1, Homo sapiens, UniProt Q13283)
Sequence of UniProt Q13283 (whole entry, looked up): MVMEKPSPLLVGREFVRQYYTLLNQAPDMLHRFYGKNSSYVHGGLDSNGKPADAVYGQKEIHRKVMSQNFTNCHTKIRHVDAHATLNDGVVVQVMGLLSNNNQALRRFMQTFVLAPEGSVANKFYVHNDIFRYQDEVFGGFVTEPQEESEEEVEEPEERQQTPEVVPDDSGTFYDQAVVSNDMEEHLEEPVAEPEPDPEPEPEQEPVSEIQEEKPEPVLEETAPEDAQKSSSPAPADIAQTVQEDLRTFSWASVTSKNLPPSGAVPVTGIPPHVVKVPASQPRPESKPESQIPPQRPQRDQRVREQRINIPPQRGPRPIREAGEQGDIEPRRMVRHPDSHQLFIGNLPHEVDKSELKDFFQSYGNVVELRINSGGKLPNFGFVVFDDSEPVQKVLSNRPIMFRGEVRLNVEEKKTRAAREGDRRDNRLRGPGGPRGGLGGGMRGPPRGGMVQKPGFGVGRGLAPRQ
Method: RNA Bind-n-Seq
Form: RNA
Sample: in vitro
Tested at: 1 µM
Setting: whole 134-nt RNA, ends assumed
With: 150 mM KCl
Baseline: input library
Reading: higher = stronger binding
Strand | log2 enrichment
GGGAGUUCUACAGUCCGACGAUCAGUCCUGUGCUACACAUCGUAUGUACCGAAUCGGGAGGGUUUUUGGGAAAAAAAGGGAAAGUAUUAUGUUACGCCGUUCGGAUCUGCACUUGGAAUUCUCGGGUGUCAAGG | -0.499
GGGAGUUCUACAGUCCGACGAUCCCUGUGCUACACAUCGUAUGUACCGAAUCAAAUUUUUAAACCCCCCCAAACCCCCCCAAAAAAGUAUUAUGUUACGCCGUUCGGAUCUGCUGGAAUUCUCGGGUGUCAAGG | -1.05
GGGAGUUCUACAGUCCGACGAUCUAGCUUUAGAGGAGGAUCUGAUGGAUAUGGCAGUGGACGUGGAUUUGGGGAUGGCUAUAAUGGGUAUGGAGGAGGACCUGGAGGUGGCAAUGGAAUUCUCGGGUGUCAAGG | -1.18
GGGAGUUCUACAGUCCGACGAUCGCAGGAAGUAAAAACAAAUGGAAAUGCUUCGGAUAGUGGCAGGGGUGGGGGUUGCUAAGGAAAGGGUGGGAUGGAAAUGGGUAAAGAGUUUGGAAUUCUCGGGUGUCAAGG | 1.49

Single results of other studies
Molecule | target | test | test system | conditions | scale | endpoint | result
PhoQ, residues 284 288 289 292 302 303 SSYNSA | PhoP, residues 12 14 15 18 19 LWHVM (Escherichia coli, UniProt P23836) | Sort-seq, item: YFP reporter | E. coli | PhoQ-PhoP variant library, with: 10 µM Mg2+ | baseline: high Mg2+ state, higher = stronger signaling | fold induction | 21.7

For quick reference, copied from above (block 3):
Strand | log2 enrichment
GGGAGUUCUACAGUCCGACGAUCUAGCUUUAGAGGAGGAUCUGAUGGAUAUGGCAGUGGACGUGGAUUUGGGGAUGGCUAUAAUGGGUAUGGAGGAGGACCUGGAGGUGGCAAUGGAAUUCUCGGGUGUCAAGG | -1.18
